Published values pooled from the literature.
Compare with care: the assays were run in different laboratories. Several values in a cell are separate wells, animals, samples, runs or records. ± gives the spread as reported.
Sequence of UniProt P20813 (whole entry, looked up): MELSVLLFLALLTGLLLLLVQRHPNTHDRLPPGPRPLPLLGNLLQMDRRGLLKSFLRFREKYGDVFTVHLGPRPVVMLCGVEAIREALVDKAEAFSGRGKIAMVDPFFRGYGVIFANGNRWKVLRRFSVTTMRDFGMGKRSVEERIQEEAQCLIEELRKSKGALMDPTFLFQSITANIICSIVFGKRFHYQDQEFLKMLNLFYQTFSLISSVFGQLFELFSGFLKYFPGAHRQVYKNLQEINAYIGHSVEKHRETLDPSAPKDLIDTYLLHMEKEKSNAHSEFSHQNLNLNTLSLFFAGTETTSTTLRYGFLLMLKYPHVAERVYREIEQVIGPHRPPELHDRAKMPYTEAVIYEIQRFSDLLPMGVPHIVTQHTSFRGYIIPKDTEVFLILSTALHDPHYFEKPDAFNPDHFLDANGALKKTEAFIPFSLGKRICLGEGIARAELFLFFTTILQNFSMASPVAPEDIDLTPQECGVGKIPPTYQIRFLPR
Sequence of UniProt P00761 (whole entry, looked up): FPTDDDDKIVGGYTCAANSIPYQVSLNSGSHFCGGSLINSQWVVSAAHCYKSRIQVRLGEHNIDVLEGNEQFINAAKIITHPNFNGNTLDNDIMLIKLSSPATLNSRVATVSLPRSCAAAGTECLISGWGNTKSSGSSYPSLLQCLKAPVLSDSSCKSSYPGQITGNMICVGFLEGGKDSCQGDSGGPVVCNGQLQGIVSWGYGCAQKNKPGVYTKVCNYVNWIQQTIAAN

CC(C)CC(=O)Nc1ccc([C@H]2[C@@H](F)[C@@H](F)C[C@@H](F)[C@H]2F)cc1  hepatic clearance (liver microsome stability; mouse liver microsomes; 1 µM): 42 mL/min/kg
CCCCCCCCCCCCCCCC(=O)N[C@@H](CCC(=O)NCCCC[C@H](NC(=O)[C@H](CCC(N)=O)NC(=O)[C@H](Cc1c[nH]cn1)NC(=O)[C@@H](NC(=O)[C@H](CCCCN)NC(=O)[C@H](CC(=O)O)NC(=O)[C@H](CCSC)NC(=O)[C@H](C)NC(=O)[C@@H](NC(=O)[C@H](CO)NC(=O)[C@H](Cc1ccc(O)cc1)NC(=O)[C@H](CC(=O)O)NC(=O)[C@H](CO)NC(=O)[C@@H](NC(=O)[C@H](Cc1ccccc1)NC(=O)[C@@H](NC(=O)CNC(=O)[C@H](CCC(=O)O)NC(=O)[C@H](C)NC(=O)[C@H](Cc1ccc(O)cc1)NCC(F)(F)F)[C@@H](C)O)[C@@H](C)CC)[C@@H](C)CC)[C@@H](C)CC)C(=O)N[C@@H](CC(=O)O)C(=O)N[C@@H](Cc1ccccc1)C(=O)N[C@H](C(=O)N[C@@H](CC(N)=O)C(=O)N[C@@H](Cc1c[nH]c2ccccc12)C(=O)N[C@@H](CC(C)C)C(=O)N[C@@H](CC(C)C)C(=O)N[C@@H](C)C(=O)N[C@@H](CCC(N)=O)C(=O)N[C@@H](CCCCN)C(=O)NCC(=O)N[C@@H](CCCCN)C(=O)N[C@@H](CCCCN)C(=O)N[C@@H](CC(N)=O)C(=O)N[C@@H](CC(=O)O)C(=O)N[C@@H](Cc1c[nH]c2ccccc12)C(=O)N[C@@H](CCCCN)C(=O)N[C@@H](Cc1c[nH]cn1)C(=O)N[C@@H](CC(N)=O)C(=O)N[C@H](C(=O)N[C@H](C(=O)N[C@@H](CCC(N)=O)C(=O)O)[C@@H](C)O)[C@@H](C)CC)C(C)C)C(=O)O  fragment formed (Trypsin (Sus scrofa, UniProt P00761); LC-MS, item: fragment 1-30; 18 h, pH 8.0, 37 °C, added: trypsin 2.5 mg/mL): 7%
O=C(CC(F)(F)F)Nc1ccc(C2CCCCC2)cc1  hepatic clearance (hepatocyte stability; cryopreserved human hepatocytes; 1 µM): 19 mL/min/kg
COc1cccc(OC)c1-c1cc(C(=O)NC2(C(=O)O)C3CC4CC(C3)CC2C4)nn1-c1ccc(C(=O)N(C)CCCN(C)C(=O)[C@H](CCCCNC(=O)[C@H](CC(C)C)NC(=O)C2OC2C(=O)O)NC(=O)CN2CCN(CC(=O)[O-])CCN(CC(=O)[O-])CCN(CC(=O)[O-])CC2)cc1C(C)C.[177Lu+3] (mixture of isomers)  tracer uptake (HT-29 tumour model; host not given, stomach; 72 h, tumour-bearing): 0.064 %ID/g
N#C[C@@H]1CC(F)(F)CN1C(=O)CNC(=O)c1ccnc2c(NC(=O)[C@H](CCCCNC(=O)CCOCCOCCOCCOCCOCCOCCNC(=O)CN3CCN(CC(=O)[O-])CCN(CC(=O)[O-])CCN(CC(=O)[O-])CC3)NC(=O)CCCc3ccc(I)cc3)cccc12.[177Lu+3]  tracer uptake (U-87 MG tumour model; host not given, blood; 72 h, tumour-bearing): 0.77 %ID/g
CNC(=O)C1CCCN(C(=O)C2CC3CCC2N3C(=O)[C@@H]2C[C@@H](O)CN2C(=O)NCc2cccc(Cl)c2F)C1 (mixture of isomers)  remaining activity (Cytochrome P450 2B6 (CYP2B6, Homo sapiens, UniProt P20813); preincubation without NADPH; human; 1.85 µM; baseline: negative control): 97% and 99.7% and 107%
Cc1n[nH]c(C)c1CCCOc1cc(C(=O)NCCCCC(NC(=O)CN2CCN(CC(=O)[O-])CCN(CC(=O)[O-])CCN(CC(=O)[O-])CC2)C(=O)NCC2CCC(C(=O)NC(Cc3ccc4ccccc4c3)C(=O)NCCCCC(NC(=O)NC(CCC(=O)O)C(=O)O)C(=O)O)CC2)ccc1F.[177Lu+3] (stereo not drawn)  tracer uptake (22Rv1 tumour model; host not given, blood; 96 h, tumour-bearing): 0.11 %ID/g
Cc1cc(C(=O)N[C@H](C(=O)Nc2cccc(C(N)=O)c2)c2ccc(OCc3ccccc3)cc2)n(Cc2ccccc2)n1  CC50 (HeLa; cell growth or viability): > 50 µM
N#CCNC(=O)c1ccc(C2CCCCC2)cc1  hepatic clearance (liver microsome stability; rat liver microsomes; 1 µM): 52 mL/min/kg
Cc1cc(=O)c2c(O)c3c(O[C@@H]4O[C@H](CO)[C@@H](O)[C@H](O)[C@H]4O)cc(O)cc3cc2o1  cell viability (HepaRG co-cultured with HK-2; MTT; 266.67 µM, 24 h; baseline: untreated control): 87.2 ± 9.67%
CC(=O)N[C@H](C(=O)N[C@H](C(=O)N[C@@H](CCCNC(=N)N)C(=O)N[C@@H](CC(N)=O)C(=O)N[C@@H](CC(=O)O)C(=O)N[C@H](C(=O)N1CCC[C@@H]1C(=O)N1CCC[C@H]1C(=O)N[C@@H](CC(=O)O)C(=O)N[C@@H](CO)C(=O)N[C@@H](CC(C)C)C(=O)N[C@@H](CC(C)C)C(=O)N[C@H](C(=O)N[C@@H](Cc1ccccc1)C(N)=O)C(C)C)C(C)C)[C@@H](C)O)C(C)C  concentration (HEK-293T; subcellular fractionation LC-MS; nuclear fraction; 20 µM, 24 h): not detected
O=C(NCc1cccc(Cl)c1)c1ccc([C@H]2[C@@H](F)[C@@H](F)C[C@@H](F)[C@H]2F)cc1  hepatic clearance (hepatocyte stability; cryopreserved rat hepatocytes; 1 µM): 42 mL/min/kg
CCN(CC)CC#CCNc1ccnc2cc(Cl)ccc12  revertants per well (Salmonella typhimurium; mini-Ames test; TA1535; 125.0 µg/well, with rat liver S9): 4
Nc1nc2cc(C(=O)c3ccc(F)cc3)ccc2[nH]1  revertants per plate (Salmonella typhimurium; Ames preincubation test; TA1535; 312.5 µg/plate, 3 days, without S9): 20.3 revertants/plate
N#C[C@@H]1CC(F)(F)CN1C(=O)CNC(=O)c1ccnc2c(NC(=O)[C@@H](N)CCCCNC(=O)CCOCCOCCOCCOCCOCCOCCNC(=O)CN3CCN(CC(=O)[O-])CCN(CC(=O)[O-])CCN(CC(=O)[O-])CC3)cccc12.[177Lu+3]  tracer uptake (U-87 MG tumour model; host not given, tumour; 4 h, tumour-bearing): 4.16 %ID/g

A few entries again:
COc1cccc(OC)c1-c1cc(C(=O)NC2(C(=O)O)C3CC4CC(C3)CC2C4)nn1-c1ccc(C(=O)N(C)CCCN(C)C(=O)[C@H](CCCCNC(=O)[C@H](CC(C)C)NC(=O)C2OC2C(=O)O)NC(=O)CN2CCN(CC(=O)[O-])CCN(CC(=O)[O-])CCN(CC(=O)[O-])CC2)cc1C(C)C.[177Lu+3] (mixture of isomers)  tracer uptake (HT-29 tumour model; host not given, stomach; 72 h, tumour-bearing): 0.064 %ID/g
CC(=O)N[C@H](C(=O)N[C@H](C(=O)N[C@@H](CCCNC(=N)N)C(=O)N[C@@H](CC(N)=O)C(=O)N[C@@H](CC(=O)O)C(=O)N[C@H](C(=O)N1CCC[C@@H]1C(=O)N1CCC[C@H]1C(=O)N[C@@H](CC(=O)O)C(=O)N[C@@H](CO)C(=O)N[C@@H](CC(C)C)C(=O)N[C@@H](CC(C)C)C(=O)N[C@H](C(=O)N[C@@H](Cc1ccccc1)C(N)=O)C(C)C)C(C)C)[C@@H](C)O)C(C)C  concentration (HEK-293T; subcellular fractionation LC-MS; nuclear fraction; 20 µM, 24 h): not detected
